Measurements gathered from unrelated publications.
Numbered parts are unrelated; each lists some results of a single study.
Sequence of UniProt P00519 (whole entry, unmodified, looked up): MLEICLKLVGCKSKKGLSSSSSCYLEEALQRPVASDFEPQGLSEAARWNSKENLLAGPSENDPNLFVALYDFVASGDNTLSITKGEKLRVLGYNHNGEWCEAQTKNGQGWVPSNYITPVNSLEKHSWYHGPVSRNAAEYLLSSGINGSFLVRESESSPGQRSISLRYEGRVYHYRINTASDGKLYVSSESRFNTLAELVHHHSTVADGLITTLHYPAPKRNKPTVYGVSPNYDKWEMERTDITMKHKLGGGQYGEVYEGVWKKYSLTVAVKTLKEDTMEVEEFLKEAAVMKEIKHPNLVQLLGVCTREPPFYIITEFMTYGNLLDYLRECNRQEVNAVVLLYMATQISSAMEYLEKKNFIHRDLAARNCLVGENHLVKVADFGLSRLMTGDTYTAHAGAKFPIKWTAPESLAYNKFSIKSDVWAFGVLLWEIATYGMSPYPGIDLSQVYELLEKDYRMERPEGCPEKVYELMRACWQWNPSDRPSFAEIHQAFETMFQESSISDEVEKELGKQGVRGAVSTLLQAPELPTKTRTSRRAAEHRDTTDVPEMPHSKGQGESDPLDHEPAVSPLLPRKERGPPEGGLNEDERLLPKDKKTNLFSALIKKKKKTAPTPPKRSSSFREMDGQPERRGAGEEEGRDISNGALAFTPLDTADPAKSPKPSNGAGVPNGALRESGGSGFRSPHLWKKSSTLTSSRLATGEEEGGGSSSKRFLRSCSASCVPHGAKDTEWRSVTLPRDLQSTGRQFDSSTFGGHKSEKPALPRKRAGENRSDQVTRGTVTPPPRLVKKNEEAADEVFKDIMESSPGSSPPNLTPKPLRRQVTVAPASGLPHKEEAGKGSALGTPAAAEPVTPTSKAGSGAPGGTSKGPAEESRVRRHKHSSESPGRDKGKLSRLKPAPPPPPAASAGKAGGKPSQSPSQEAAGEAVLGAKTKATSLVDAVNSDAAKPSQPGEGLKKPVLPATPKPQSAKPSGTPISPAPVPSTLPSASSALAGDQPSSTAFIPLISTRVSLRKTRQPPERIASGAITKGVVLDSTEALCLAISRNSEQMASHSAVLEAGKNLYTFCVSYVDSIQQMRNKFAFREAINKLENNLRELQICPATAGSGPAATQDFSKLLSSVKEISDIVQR
Sequence of UniProt P10721 (whole entry, unmodified, looked up): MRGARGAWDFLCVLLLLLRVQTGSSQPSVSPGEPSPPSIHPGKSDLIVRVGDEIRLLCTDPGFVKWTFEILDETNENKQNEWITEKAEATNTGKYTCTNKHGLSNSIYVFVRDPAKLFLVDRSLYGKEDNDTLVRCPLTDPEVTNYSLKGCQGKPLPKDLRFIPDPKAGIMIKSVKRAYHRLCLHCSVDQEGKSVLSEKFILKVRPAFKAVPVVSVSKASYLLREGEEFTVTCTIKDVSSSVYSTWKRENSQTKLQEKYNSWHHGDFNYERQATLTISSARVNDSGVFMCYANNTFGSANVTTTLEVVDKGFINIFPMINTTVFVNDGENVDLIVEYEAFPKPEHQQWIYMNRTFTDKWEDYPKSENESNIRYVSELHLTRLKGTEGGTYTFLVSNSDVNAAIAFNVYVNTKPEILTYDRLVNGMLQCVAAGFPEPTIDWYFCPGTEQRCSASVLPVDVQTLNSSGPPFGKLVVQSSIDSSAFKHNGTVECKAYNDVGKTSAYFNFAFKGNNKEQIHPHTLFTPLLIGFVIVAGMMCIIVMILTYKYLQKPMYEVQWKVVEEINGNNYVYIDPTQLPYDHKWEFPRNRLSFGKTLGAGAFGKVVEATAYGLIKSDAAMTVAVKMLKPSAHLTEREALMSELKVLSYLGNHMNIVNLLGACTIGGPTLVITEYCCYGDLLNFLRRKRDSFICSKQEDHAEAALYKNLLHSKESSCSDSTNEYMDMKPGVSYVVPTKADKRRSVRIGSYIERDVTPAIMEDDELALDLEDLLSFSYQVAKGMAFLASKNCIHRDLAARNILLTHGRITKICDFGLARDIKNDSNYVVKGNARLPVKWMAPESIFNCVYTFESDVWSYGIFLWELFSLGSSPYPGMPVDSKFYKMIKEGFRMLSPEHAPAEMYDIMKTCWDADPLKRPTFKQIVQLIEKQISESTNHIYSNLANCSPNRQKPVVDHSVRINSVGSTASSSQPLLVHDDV
Sequence of UniProt Q9NWZ3 (whole entry, looked up): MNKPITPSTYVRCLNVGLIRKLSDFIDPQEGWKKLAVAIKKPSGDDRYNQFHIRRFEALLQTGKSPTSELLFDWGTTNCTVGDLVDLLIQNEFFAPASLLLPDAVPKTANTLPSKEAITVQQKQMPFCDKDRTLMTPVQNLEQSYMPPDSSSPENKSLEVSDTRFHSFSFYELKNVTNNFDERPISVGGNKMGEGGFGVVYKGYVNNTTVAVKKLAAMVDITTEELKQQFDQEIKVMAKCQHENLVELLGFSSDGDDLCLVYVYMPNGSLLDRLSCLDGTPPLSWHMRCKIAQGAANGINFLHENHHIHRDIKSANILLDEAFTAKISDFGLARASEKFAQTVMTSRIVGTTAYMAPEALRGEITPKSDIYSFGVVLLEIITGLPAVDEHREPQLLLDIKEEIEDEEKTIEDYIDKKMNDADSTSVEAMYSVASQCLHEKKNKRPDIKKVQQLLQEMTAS
Sequence of UniProt P54762 (whole entry, looked up): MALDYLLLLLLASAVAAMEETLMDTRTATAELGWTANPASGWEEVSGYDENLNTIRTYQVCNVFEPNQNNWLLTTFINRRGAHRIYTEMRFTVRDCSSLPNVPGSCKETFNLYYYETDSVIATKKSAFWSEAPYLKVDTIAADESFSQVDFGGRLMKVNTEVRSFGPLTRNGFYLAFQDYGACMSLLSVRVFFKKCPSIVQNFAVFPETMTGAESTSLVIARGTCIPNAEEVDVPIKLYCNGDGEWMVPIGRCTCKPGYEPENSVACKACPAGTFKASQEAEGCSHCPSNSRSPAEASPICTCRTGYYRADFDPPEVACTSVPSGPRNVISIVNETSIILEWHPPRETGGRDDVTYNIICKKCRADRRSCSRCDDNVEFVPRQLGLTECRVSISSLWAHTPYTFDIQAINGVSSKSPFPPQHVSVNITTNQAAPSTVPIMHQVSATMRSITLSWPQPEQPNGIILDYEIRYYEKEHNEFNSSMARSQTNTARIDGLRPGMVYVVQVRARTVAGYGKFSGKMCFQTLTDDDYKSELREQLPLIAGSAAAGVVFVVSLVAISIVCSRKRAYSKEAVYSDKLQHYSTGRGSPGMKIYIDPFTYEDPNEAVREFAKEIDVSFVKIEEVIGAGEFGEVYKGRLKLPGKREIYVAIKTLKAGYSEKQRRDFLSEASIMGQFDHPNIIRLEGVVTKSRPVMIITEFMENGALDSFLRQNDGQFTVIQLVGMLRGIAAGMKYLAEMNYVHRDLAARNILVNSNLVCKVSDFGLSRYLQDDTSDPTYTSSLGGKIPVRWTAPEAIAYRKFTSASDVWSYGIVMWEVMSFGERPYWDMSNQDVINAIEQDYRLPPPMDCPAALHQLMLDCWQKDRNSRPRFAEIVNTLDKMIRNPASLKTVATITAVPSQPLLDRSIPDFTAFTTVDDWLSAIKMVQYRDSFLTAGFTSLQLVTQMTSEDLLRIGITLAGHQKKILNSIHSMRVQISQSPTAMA
Sequence of UniProt P57059 (whole entry, looked up): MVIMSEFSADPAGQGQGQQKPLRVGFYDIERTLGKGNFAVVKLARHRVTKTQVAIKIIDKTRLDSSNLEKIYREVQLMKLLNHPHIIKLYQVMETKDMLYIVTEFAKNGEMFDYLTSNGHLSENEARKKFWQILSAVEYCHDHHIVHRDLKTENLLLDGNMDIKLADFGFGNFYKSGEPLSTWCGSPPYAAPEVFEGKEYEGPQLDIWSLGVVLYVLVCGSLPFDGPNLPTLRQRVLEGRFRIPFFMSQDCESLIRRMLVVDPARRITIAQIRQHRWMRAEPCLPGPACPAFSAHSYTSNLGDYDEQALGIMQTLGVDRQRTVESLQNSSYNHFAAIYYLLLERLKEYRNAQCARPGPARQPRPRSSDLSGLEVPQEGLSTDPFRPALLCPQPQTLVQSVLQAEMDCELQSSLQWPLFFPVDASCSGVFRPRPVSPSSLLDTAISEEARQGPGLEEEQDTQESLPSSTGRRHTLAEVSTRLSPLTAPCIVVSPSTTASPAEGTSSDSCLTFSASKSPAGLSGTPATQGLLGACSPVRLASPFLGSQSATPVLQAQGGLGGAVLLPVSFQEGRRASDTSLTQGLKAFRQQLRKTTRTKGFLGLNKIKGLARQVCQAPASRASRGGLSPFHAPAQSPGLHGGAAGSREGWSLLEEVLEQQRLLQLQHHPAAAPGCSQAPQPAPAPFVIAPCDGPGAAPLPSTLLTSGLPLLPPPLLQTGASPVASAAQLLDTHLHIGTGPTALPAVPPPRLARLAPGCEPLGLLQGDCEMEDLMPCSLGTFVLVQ
Sequence of UniProt P27361 (whole entry, looked up): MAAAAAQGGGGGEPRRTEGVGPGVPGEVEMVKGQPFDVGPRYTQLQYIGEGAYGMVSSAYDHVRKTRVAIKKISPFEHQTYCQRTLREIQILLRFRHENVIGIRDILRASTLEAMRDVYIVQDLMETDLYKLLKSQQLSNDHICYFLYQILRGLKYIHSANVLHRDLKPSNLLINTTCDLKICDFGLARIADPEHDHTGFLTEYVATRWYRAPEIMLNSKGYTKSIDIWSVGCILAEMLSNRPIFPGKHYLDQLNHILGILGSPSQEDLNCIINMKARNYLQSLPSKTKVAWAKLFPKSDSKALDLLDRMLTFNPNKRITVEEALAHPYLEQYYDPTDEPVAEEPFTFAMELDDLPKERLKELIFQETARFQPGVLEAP

Set 1 — effect on: enzyme activity; action: inhibitor; concentration: 0.5 µM; relative to: control
Target: Aurora kinase B (AURKB, Homo sapiens, UniProt Q96GD4)
Sequence of UniProt Q96GD4 (whole entry, looked up): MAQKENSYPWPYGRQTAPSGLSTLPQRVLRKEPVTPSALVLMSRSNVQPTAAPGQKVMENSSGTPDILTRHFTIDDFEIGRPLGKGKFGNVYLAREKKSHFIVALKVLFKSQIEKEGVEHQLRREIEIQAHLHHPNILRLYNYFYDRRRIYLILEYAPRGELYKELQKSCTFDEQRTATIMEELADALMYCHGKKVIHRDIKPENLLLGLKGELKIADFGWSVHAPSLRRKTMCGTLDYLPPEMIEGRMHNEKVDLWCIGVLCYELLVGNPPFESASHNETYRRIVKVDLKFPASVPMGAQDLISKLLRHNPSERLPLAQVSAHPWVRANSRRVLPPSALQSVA
SMILES | remaining activity [%]
CC#CC(=O)Nc1cc2c(Nc3ccc(F)c(Cl)c3)ncnc2cn1 | 101
Oc1ccc(Nc2nc(-c3ccc(Cl)cc3)cs2)cc1 | 102
O=S(=O)(NCCNC/C=C/c1ccc(Br)cc1)c1cccc2cnccc12 | 97.8
CSc1nc(-c2ccnc(N[C@@H](C)c3ccccc3)c2)c(-c2ccc(F)cc2)[nH]1 (racemic) | 98.4
CCc1[nH]c(-c2ccc(OC)cc2)nc1-c1ccncc1 | 101
Cc1cncc2cccc(S(=O)(=O)N3CCCN(C(=O)CN)C[C@@H]3C)c12 | 34.9
COc1cc(Nc2c(C#N)cnc3cc(OCCCN4CCN(C)CC4)c(OC)cc23)c(Cl)cc1Cl | 83.1
O=C1NC(=O)C(c2c[nH]c3ccccc23)=C1c1c[nH]c2ccccc12 | 89.3
Nc1ncnc2c1cnn2-c1ccccc1 | 99.2
COc1ccc(S(=O)(=O)N(CCO)c2ccccc2CN(C)CC=Cc2ccc(Cl)cc2)cc1 | 106
CC(=O)c1ccc(N2CCOCC2)cc1O | 91.5
Fc1ccc(-c2nc3n(c2-c2ccncc2)CCS3)cc1 | 98.5
Cc1cc(Nc2nc(-c3ccccc3)nc3ccccc23)n[nH]1 | 52
O=C1Cc2c([nH]c3ccc([N+](=O)[O-])cc23)-c2ccccc2N1 | 85.9
N#CC(=C(N)Sc1ccc(N)cc1)c1ccccc1C(F)(F)F | 99.8
CC[n+]1c(/C=C/N(C)c2ccccc2)n(-c2ccccc2)c2ccc(-c3nc4ccccc4s3)cc21 | 93.8
Cc1ccc(NC2=CC(=O)c3sc(C)nc3C2=O)cc1 | 89.8
Nc1nccc(-c2c(-c3ccc(F)cc3)ncn2C2CCNCC2)n1 | 103
CC(C)(C)n1nc(Cc2cccc3ccccc23)c2c(N)ncnc21 | 94.8
NC(=O)c1ccc(N(C(N)=O)c2c(F)cccc2F)nc1-c1ccc(F)cc1F | 91.3
CCCC(=O)Oc1ccc2[nH]c(C(=O)c3cc4ccccc4[nH]3)cc2c1 | 97.1

Set 2
Structure (SMILES): CC(C)n1cnc(-c2ccc(F)cc2)c1-c1ncc(C(=O)Nc2ccc(N3CCN(C)CC3)cc2)[nH]1
assay | system | conditions | patients with adverse event [%]
refers to: prostatic calcification, maximum grade 1 | idiopathic pulmonary fibrosis patients | oral, 60 mg once daily | 0
Phase 2a trial, refers to: haemoptysis | human, idiopathic pulmonary fibrosis | 60 mg once daily, grade 5 | 0
Phase 2a trial, refers to: blood pressure increased | human, idiopathic pulmonary fibrosis | all compound arms total, grade 3 | 0
Phase 2a trial, refers to: blood urea increased | human, idiopathic pulmonary fibrosis | 60 mg once daily, grade 5 | 0
refers to: prostatic calcification, maximum grade 5 | idiopathic pulmonary fibrosis patients | dose not given, all compound arms pooled | 0
Phase 2a trial, refers to: hepatobiliary disorders | human, idiopathic pulmonary fibrosis | 30 mg once daily, grade 3 | 0
Phase 2a trial, refers to: hypercholesterolaemia | human, idiopathic pulmonary fibrosis | 30 mg once daily, grade 1 | 0
Phase 2a trial, refers to: eosinophilia myalgia syndrome | human, idiopathic pulmonary fibrosis | 30 mg once daily, grade 2 | 0
Phase 2a trial, refers to: hypercholesterolaemia | human, idiopathic pulmonary fibrosis | 60 mg once daily, grade 5 | 0
refers to: abnormal liver function test, grade 4 | idiopathic pulmonary fibrosis patients | dose not given, all compound arms pooled | 0
Phase 2a trial, refers to: respiratory, thoracic, mediastinal disorders | human, idiopathic pulmonary fibrosis | 60 mg once daily, grade 4 | 0
Phase 2a trial, refers to: eosinophilia myalgia syndrome | human, idiopathic pulmonary fibrosis | 30 mg once daily, grade 1 | 0
Phase 2a trial, refers to: blood lactate dehydrogenase increased | human, idiopathic pulmonary fibrosis | 30 mg once daily, grade 5 | 0

Set 3 — concentration: 10 µM
SMILES: Cc1sc(C(=O)NC2COC2)cc1-n1cc(NC(=O)Nc2c(F)cccc2Cl)cn1
target | assay | scale | remaining activity [%]
Serine/threonine-protein kinase Chk2 (CHEK2, Homo sapiens, UniProt O96017) | enzyme activity | relative to: untreated control | 93.8
Mitogen-activated protein kinase kinase kinase kinase 4 (MAP4K4, Homo sapiens, UniProt O95819) | enzyme activity | relative to: untreated control | 92.7
Serine/threonine-protein kinase TBK1 (TBK1, Homo sapiens, UniProt Q9UHD2) | enzyme activity | relative to: untreated control | 95.8
Serine/threonine-protein kinase SIK1 (SIK1, Homo sapiens, UniProt P57059) | enzyme activity | relative to: untreated control | 95.4
Activin receptor type-1B (ACVR1B, Homo sapiens, UniProt P36896) | enzyme activity | relative to: untreated control | 78.4
cAMP-dependent protein kinase catalytic subunit gamma (PRKACG, Homo sapiens, UniProt P22612) | enzyme activity, inhibitor |  | 99
Ribosomal protein S6 kinase alpha-2 (RPS6KA2, Homo sapiens, UniProt Q15349) | enzyme activity | relative to: untreated control | 94.1
Mitogen-activated protein kinase kinase kinase 21 (MAP3K21, Homo sapiens, UniProt Q5TCX8) | enzyme activity, inhibitor |  | 85.2
MAP kinase-activated protein kinase 3 (MAPKAPK3, Homo sapiens, UniProt Q16644) | enzyme activity | relative to: untreated control | 108
Ephrin type-B receptor 1 (EPHB1, Homo sapiens, UniProt P54762) | enzyme activity | relative to: untreated control | 98.7
Tyrosine-protein kinase Fer (FER, Homo sapiens, UniProt P16591) | enzyme activity | relative to: untreated control | 89.5
Ephrin type-B receptor 4 (EPHB4, Homo sapiens, UniProt P54760) | enzyme activity | relative to: untreated control | 93.7
Serine/threonine-protein kinase TAO2 (TAOK2, Homo sapiens, UniProt Q9UL54) | kinase activity, kinase panel profiling |  | 93.3
Tau-tubulin kinase 2 (TTBK2, Homo sapiens, UniProt Q6IQ55) | enzyme activity, inhibitor |  | 97.6
Serine/threonine-protein kinase pim-2 (PIM2, Homo sapiens, UniProt Q9P1W9) | enzyme activity | relative to: untreated control | 95.5

Set 4 — technique: competition with immobilised ligand; concentration: 1 µM
Compound: CO[C@@H](C)c1c(Nc2ccc([C@@H](N(C)C(=O)C3CCS(=O)(=O)CC3)C(F)(F)F)cc2)cnc2cc(Cl)nn12
target | assay | remaining binding [%]
Epidermal growth factor receptor (EGFR, Homo sapiens, UniProt P00533) | cell-free assay | 95
Phosphatidylinositol 5-phosphate 4-kinase type-2 beta (PIP4K2B, Homo sapiens, UniProt P78356) | cell-free assay | 100
Mast/stem cell growth factor receptor Kit, autoinhibited (KIT, Homo sapiens, UniProt P10721) | cell-free assay | 85
Mitogen-activated protein kinase kinase kinase kinase 5 (MAP4K5, Homo sapiens, UniProt Q9Y4K4) | cell-free assay | 100
Phosphatidylinositol 4,5-bisphosphate 3-kinase catalytic subunit alpha isoform (PIK3CA, Homo sapiens, UniProt P42336, E545A) | cell-free assay | 77
Tyrosine-protein kinase Srms (SRMS, Homo sapiens, UniProt Q9H3Y6) | cell-free assay | 100
Interleukin-1 receptor-associated kinase 4 (IRAK4, Homo sapiens, UniProt Q9NWZ3) | cell-free assay | 89
cAMP-dependent protein kinase catalytic subunit beta (PRKACB, Homo sapiens, UniProt P22694) | cell-free assay | 89
Serine/threonine-protein kinase pim-1 (PIM1, Homo sapiens, UniProt P11309) | cell-free assay | 100
Serine/threonine-protein kinase Nek11 (NEK11, Homo sapiens, UniProt Q8NG66) | cell-free assay | 100
Tyrosine-protein kinase ABL1, non-phosphorylated (ABL1, Homo sapiens, UniProt P00519, F317I) | binding | 100
Mitogen-activated protein kinase kinase kinase 10 (MAP3K10, Homo sapiens, UniProt Q02779) | cell-free assay | 77
Mast/stem cell growth factor receptor Kit (KIT, Homo sapiens, UniProt P10721, L576P) | cell-free assay | 100
Receptor-interacting serine/threonine-protein kinase 2 (RIPK2, Homo sapiens, UniProt O43353) | cell-free assay | 83
Tyrosine-protein kinase ABL1, phosphorylated (ABL1, Homo sapiens, UniProt P00519, F317L) | cell-free assay | 89
Mitogen-activated protein kinase 3 (MAPK3, Homo sapiens, UniProt P27361) | cell-free assay | 86
Rhodopsin kinase GRK7 (GRK7, Homo sapiens, UniProt Q8WTQ7) | cell-free assay | 100
Insulin receptor-related protein (INSRR, Homo sapiens, UniProt P14616) | cell-free assay | 89
Receptor tyrosine-protein kinase erbB-2 (ERBB2, Homo sapiens, UniProt P04626) | cell-free assay | 70
Tyrosine-protein kinase CSK (CSK, Homo sapiens, UniProt P41240) | cell-free assay | 100
cAMP-dependent protein kinase catalytic subunit alpha (PRKACA, Homo sapiens, UniProt P17612) | cell-free assay | 87
Serine/threonine-protein kinase tousled-like 1 (TLK1, Homo sapiens, UniProt Q9UKI8) | cell-free assay | 100

Excerpt of the above (set 1):
SMILES | remaining activity [%]
CSc1nc(-c2ccnc(N[C@@H](C)c3ccccc3)c2)c(-c2ccc(F)cc2)[nH]1 (racemic) | 98.4
CCc1[nH]c(-c2ccc(OC)cc2)nc1-c1ccncc1 | 101
Cc1cncc2cccc(S(=O)(=O)N3CCCN(C(=O)CN)C[C@@H]3C)c12 | 34.9
COc1cc(Nc2c(C#N)cnc3cc(OCCCN4CCN(C)CC4)c(OC)cc23)c(Cl)cc1Cl | 83.1
O=C1NC(=O)C(c2c[nH]c3ccccc23)=C1c1c[nH]c2ccccc12 | 89.3
